Measurements from different studies.
A part holds a random share of what one study measured. Changes are numbered by the printed parent chain.

Sample 1 — technique: DHFR PCA, deep sequencing; sample: yeast; together with: (+)-ABA 0.39 µM; relative to: wild-type fitted maximum; direction: higher = stronger binding
Target: ABI1, truncated, D143A, DHFR fusion (Arabidopsis thaliana)
Setting: methotrexate growth selection, single substitutions
Parent: PYL1, truncated, DHFR fusion (Arabidopsis thaliana); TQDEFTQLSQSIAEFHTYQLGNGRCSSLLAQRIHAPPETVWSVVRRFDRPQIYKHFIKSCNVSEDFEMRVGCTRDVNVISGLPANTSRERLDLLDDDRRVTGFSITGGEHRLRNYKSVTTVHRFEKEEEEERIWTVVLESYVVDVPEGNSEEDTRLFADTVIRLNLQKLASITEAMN; partner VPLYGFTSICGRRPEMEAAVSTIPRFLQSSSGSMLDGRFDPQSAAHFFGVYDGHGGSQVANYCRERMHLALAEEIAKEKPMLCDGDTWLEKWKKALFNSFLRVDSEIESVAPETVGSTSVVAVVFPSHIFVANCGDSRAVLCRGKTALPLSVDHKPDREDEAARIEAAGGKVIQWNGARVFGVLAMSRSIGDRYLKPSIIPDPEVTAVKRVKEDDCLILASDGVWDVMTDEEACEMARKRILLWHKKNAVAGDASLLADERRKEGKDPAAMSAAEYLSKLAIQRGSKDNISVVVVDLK
| Variant | relative binding score [%] |
| --- | --- |
| N149F | -10.1 |
| S171M | 39.1 |
| R123S | 61.3 |
| T39D | 25.2 |
| R90C | -6.18 |
| P50M | -1.92 |
| E129W | 18.5 |
| G71M | -9.09 |
| L166V | 3.6 |
| T86R | 23.5 |
| N61P | -10.5 |
| R98H | 5.48 |
| C60A | -1.4 |
| L91N | -9.79 |

Sample 2 — technique: protein-binding microarray; molecule type: double-stranded DNA, one strand shown; sample: in vitro; tested at: 940 nM top; setting: 60-bp whole probe; together with: salmon DNA 0.4 mg/ml; relative to: random background probes; direction: higher = stronger binding; constant ends, left off below: GCCTAGCAC … GTCTTGATTCGCTTGACGCTGCTG
Target: Interferon regulatory factor 5, full length, phosphomimetic (IRF5, Homo sapiens, UniProt Q13568-2, residues 1-514, S451D/S453D/S456D/S462D)
| Oligonucleotide | fitted relative affinity [z-score] |
| --- | --- |
| TTAGATATTAGTCTCGATTAGTGCTAG | 3.69 |
| GACGGACTGGACACTGGGGATGTGCTA | -0.381 |
| GACGGTTTCGGACTGGGGCCGTGCTAG | 5.95 |
| GACGGTTTCGGGGCTGGGGACGTGCTA | 7.45 |
| GACGAGATCAGACTGGAGACGTGCTAG | -0.243 |
| GTCGGTTTCCTTTCCCTGACGTGCTAG | 4.36 |
| TCAATCTTCAAGACTCATACTGTGCTA | 0.17 |
| GATGGTATCGGGTTTCGGGACGTGCTA | 6.31 |
| GGCGGTTTCGACTTTCGGGACGTGCTA | 7.46 |
| CTCTTTTTGCTTTCTTTATGGTGCTAG | 3.11 |
| TTATGTTTCGACTTTCGGTTAGTGCTA | 6.09 |
| GACGGTTTCGACTATCGGGAGGTGCTA | 8.12 |

Sample 3 — target: CCND3, cyclin fold, Cln2 fusion (human); technique: yeast growth competition, sequencing; sample: yeast; setting: weak parent motif; relative to: not given; direction: higher = stronger binding
Parent: RBL1 docking peptide (human); GSAKRRLFGEDPP; partner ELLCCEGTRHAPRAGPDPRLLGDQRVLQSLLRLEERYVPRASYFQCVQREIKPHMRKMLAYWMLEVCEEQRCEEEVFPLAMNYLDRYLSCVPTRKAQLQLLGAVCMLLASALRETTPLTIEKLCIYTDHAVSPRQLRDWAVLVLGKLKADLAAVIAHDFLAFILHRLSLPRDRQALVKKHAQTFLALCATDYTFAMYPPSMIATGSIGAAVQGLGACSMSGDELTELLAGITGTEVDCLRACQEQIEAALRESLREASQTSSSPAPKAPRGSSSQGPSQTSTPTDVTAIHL
| Variant | normalised enrichment score |
| --- | --- |
| GSAKRRLFGRDPP [E10R] | 0.138 |
| GNAKRRLFGEDPP [S2N] | 0.0884 |
| GSAKRRLFGSDPP [E10S] | 0.142 |
| GSAKRRLFGENPP [D11N] | 0.198 |
| GSAARRLFGEDPP [K4A] | 0.193 |
| GSAKRRLFGYDPP [E10Y] | 0.0611 |
| GSAKRRLFREDPP [G9R] | 0.124 |
| GSAKRRLFPEDPP [G9P] | 0.166 |
| GSYKRRLFGEDPP [A3Y] | 0.113 |
| GSAKRRLFGIDPP [E10I] | 0.105 |
| GSAKRRLYGEDPP [F8Y] | 0.0882 |
| GVAKRRLFGEDPP [S2V] | 0.0938 |
| GSAKKRLLGEDPP [R5K F8L] | 0.00796 |

Other studies, line by line
| Substance | target | test | system | conditions | scale | endpoint | value |
| --- | --- | --- | --- | --- | --- | --- | --- |
| PhoQ, residues 284 288 289 292 302 303 NLCILV | PhoP, residues 12 14 15 18 19 LHSVQ (Escherichia coli, UniProt P23836) | Sort-seq, refers to: YFP reporter | E. coli | PhoQ-PhoP variant library, together with: 10 µM Mg2+ | relative to: high Mg2+ state, higher = stronger signaling | fold induction | 7.93 |

Excerpt of the above (sample 2):
| Oligonucleotide | fitted relative affinity [z-score] |
| --- | --- |
| GGCGGTTTCGACTTTCGGGACGTGCTA | 7.46 |
| TCAATCTTCAAGACTCATACTGTGCTA | 0.17 |
| GTCGGTTTCCTTTCCCTGACGTGCTAG | 4.36 |
| GACGAGATCAGACTGGAGACGTGCTAG | -0.243 |
| GACGGTTTCGGGGCTGGGGACGTGCTA | 7.45 |
| TTAGATATTAGTCTCGATTAGTGCTAG | 3.69 |
